Assay results collected from several papers.
Numbers after ± are the reported error.

CC(C)[C@@H]1NC(=O)c2coc(n2)-c2coc(n2)-c2coc(n2)C/C=C/c2coc(n2)-c2coc(n2)-c2coc1n2: “melting temperature shift” 36.9 °C (human telomeric quadruplex d(TTAGGG)4; UV melting; 20 µM, pH 7.5, added: 50 mM K+; reference: DNA without compound).
With Cn1sc(Cl)cc1=O the IC50 was 14.4 µM (cysteine peptide Ac-RFAACAA-COOH; peptide depletion, DPRA RapidFire-MS/MS; 24 h, pH 7.5, room temperature, added: 5.0 µM cysteine peptide).
`IINFEKE` — result for “Vmax of L-AMC hydrolysis”: 264 ± 2 nmol/min/µg (ERAP1 human L734R; activator; peptide; 100 µM, pH 8.0, 27 °C, added: L-AMC substrate).
Sc1nc2ccccc2s1 — result for “maximal peptide depletion”: -97.3% (cysteine peptide Ac-RFAACAA-COOH; DPRA RapidFire-MS/MS; 24 h, pH 7.5, added: 5.0 µM cysteine peptide).
Under polyubiquitination, CC[C@H](C)[C@H](NC(=O)[C@H](CC(=O)O)NC(=O)[C@H](CCCCN)NC(=O)[C@H](CCC(=O)O)NC(=O)[C@H](CCC(=O)O)NC(=O)[C@H](CCCCN)NC(C)=O)C(=O)N[C@@H](CC(N)=O)C(=O)N[C@@H](CC(N)=O)C(=O)N[C@@H](CC(N)=O)C(=O)N[C@H](C(=O)N[C@@H](CCCCN)C(=O)N[C@@H](CCCCN)C(=O)N[C@H](C(N)=O)[C@@H](C)O)C(C)C is recorded as “inhibited” (iNOS, mouse; SPSB2-elongin BC-dependent ubiquitination, inhibitor, Western blot; Spsb2-/- macrophage lysate; concentration not given, 10 and 40 min, 37 °C).
Under “rate constant k1”, CC(=O)N[C@@H](CC(N)=O)C(=O)NCC(=O)N[C@@H](CCCCN)C(=O)N[C@@H](C)C(N)=O is recorded as 0.232 h⁻¹ (Asn-Gly peptide isomerisation to succinimide; 1H NMR time course; pH 7.4, 55 °C).
O=c1[nH]sc2ccccc12: “maximal peptide depletion” -110% (cysteine peptide Ac-RFAACAA-COOH; DPRA RapidFire-MS/MS; 24 h, pH 7.5, added: 5.0 µM cysteine peptide).
The affinity constant of `WHWLPNLRHYAS` is reported as 175 ± 31.1 µg/mL (VEGFR-3 (human); binding, ELISA; peptide).
CC(=O)C(C)=O gave an IC50 of 41.1 µM (cysteine peptide Ac-RFAACAA-COOH; peptide depletion, DPRA RapidFire-MS/MS; 24 h, pH 7.5, room temperature, added: 5.0 µM cysteine peptide).
The EC50 of Nc1nc2c(ncn2[C@@H]2O[C@@H]3COP(=O)(O)O[C@H]3[C@H]2O)c(=O)[nH]1 is reported as 86 µM (cone cGMP-gated channel (Morone saxatilis); ion current, agonist, inside-out patch clamp; endogenous modulator present, -40 mV).
`IINFEKL` — result for “Vmax of L-AMC hydrolysis”: 391 ± 6 nmol/min/µg (ERAP1 human wild type; activator; peptide; 100 µM, pH 8.0, 27 °C, added: L-AMC substrate).
For c1cnc2c(c1)ccc1cccnc12, the remaining activity was 59% (bovine lens protease; enzyme activity, inhibitor; 100 µM, 30 min preincubation, 37 °C).

Repeated from above:
With Cn1sc(Cl)cc1=O the IC50 was 14.4 µM (cysteine peptide Ac-RFAACAA-COOH; peptide depletion, DPRA RapidFire-MS/MS; 24 h, pH 7.5, room temperature, added: 5.0 µM cysteine peptide).
